Measured values gathered from unrelated publications.
A part holds a random share of what one study measured. Changes are numbered by the printed parent chain.

Set 1 — technique: Sort-seq; refers to: YFP reporter; medium: E. coli; setting: PhoQ-PhoP variant library; added: 10 µM Mg2+; reference: high Mg2+ state; direction: higher = stronger signaling
Substance: PhoQ, residues 284 288 289 292 302 303 SSTMSV
| target | fold induction |
| --- | --- |
| PhoP, residues 12 14 15 18 19 TQCLL (Escherichia coli, UniProt P23836) | 9.52 |
| PhoP, residues 12 14 15 18 19 ICWRQ (Escherichia coli, UniProt P23836) | 5.1 |
| PhoP, residues 12 14 15 18 19 VHTVL (Escherichia coli, UniProt P23836) | 3.49 |

Set 2 — technique: RNA Bind-n-Seq; form: RNA; medium: in vitro; tested at: 365 nM; reference: no-protein control; direction: higher = stronger binding
Target: RNA binding protein fox-1 homolog 2, RRM domain, GST-SBP tag (RBFOX2, Homo sapiens, UniProt O43251-10, residues 100-194)
Setting: natural RNA segment, single round, ends assumed
All sequences stand within: GGGAGUUCUACAGUCCGACGAUC … UGGAAUUCUCGGGUGCCAA
| Oligonucleotide | RBNS enrichment (R) |
| --- | --- |
| AUUGGUUUUGUGGGCAGUUUAAUAAACCUGAACCUUUGUGUGUUUUCUAAUUGUACCUGAGUUGACCAUCCUUUCUUUUUAUAGUAUAUUUCUUGUAUGAUAUUUUGUAA | 0.651 |
| GAAGCACAGGCCCGUCACCCCAGGAGGAAAAGCCCAGGGUCUGGGGCAGCAGAGCCAUCGCAUCAUGUUUCCCAGGGCAACUUGAGGUCUGACUUUUGGCUCCCUCGCCC | 0.409 |
| AGGAGAUGUCAUGACAACACUACACGCACCCAAUAAAGCGAAUGGACCAUCCAUGUGUGUCCCUGUGGCACCGGGUCCUGCCCACCCUGGUUUUGAUCAUCCACAGCAUU | 1.4 |
| CAAACCAUUUUCAGAGACUUUGGGGAAUGCAGUGAUCAGAAGUGGCUAAUUUAUUUUAUUUCUGAUUAUUUUAUCCAGAGGGUACUUUUUUAAUGGAUAUUUGUAAAUCU | 0.841 |
| UGCUGCGUGCCCACCAGGAUUUCCUGUGAGGGCCCAGGAAUGAGCAAGGCAUGGUCUGCCACCAGCUGACGGAAAGCAGCCUUCUGUACAACAGAUGGGAGGGUGAAGGG | 0.407 |
| AAUAAGAUGCUUGAACAAGUUAGAUGAAAUGGAUCUUUGAGAUAAGUCUGAGAGACAGAGUUACUUAGACAAAUGACACUGAAGCAGAUUAGAAGCUAGUAUCACCCAUU | 0.462 |
| UUUAGGAACUCACUCUUUAGAUAUUUACAUCCAGCUUCUCAUGUUAAAUAUUUGUCCUUAAAGGGUUUGAGAUGUACAUCUUUCAUUUCGUAUUUCUCAUAGGCUAUGCC | 0.641 |
| AAUGUAUAAAGUAACACCCAAAUGUUAUUAGAAACUAGUCUUUUAGUAUUUGUAAUUUUCAACUCUUAUUGUGUUACUUUGUGUGAAAAUUUUUAGUCAAAAGUGCUUGG | 0.65 |

Set 3 — technique: RNA Bind-n-Seq; form: RNA; medium: in vitro; tested at: 1 µM; setting: whole 134-nt RNA, ends assumed; added: 150 mM KCl; reference: input library; direction: higher = stronger binding
Target: Ras GTPase-activating protein-binding protein 1, RRM domain (G3BP1, Homo sapiens, UniProt Q13283)
Chain of UniProt Q13283 (whole entry, looked up): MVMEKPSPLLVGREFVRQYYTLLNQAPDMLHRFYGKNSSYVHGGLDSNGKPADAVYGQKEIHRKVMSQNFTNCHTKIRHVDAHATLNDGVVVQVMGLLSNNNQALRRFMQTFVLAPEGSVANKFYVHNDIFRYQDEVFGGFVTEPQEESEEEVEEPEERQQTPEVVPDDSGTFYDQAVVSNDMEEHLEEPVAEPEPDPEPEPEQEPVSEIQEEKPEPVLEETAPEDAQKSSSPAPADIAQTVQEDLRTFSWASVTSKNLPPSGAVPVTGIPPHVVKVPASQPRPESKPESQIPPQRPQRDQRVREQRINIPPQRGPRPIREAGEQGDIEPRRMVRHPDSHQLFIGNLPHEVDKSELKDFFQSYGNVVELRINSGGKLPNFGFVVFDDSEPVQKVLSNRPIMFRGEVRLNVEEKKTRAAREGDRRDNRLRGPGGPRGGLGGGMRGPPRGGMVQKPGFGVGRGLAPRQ
All sequences stand within: GGGAGUUCUACAGUCCGACGAUC … UGGAAUUCUCGGGUGUCAAGG
| Oligonucleotide | log2 enrichment |
| --- | --- |
| AGUCCUGUGCUACACAUCGUAUGUACCGAAUCGGGUUUGGGAAAAAGGGUUUUUGGGAAAGUAUUAUGUUACGCCGUUCGGAUCUGCACU | 0.442 |
| CCUCAAGUCCUGUGCUACACAUCGUAUGUACCGAAUCGGAGGGAGGGAGGGGAAAGUAUUAUGUUACGCCGUUCGGAUCUGCACUUCCAG | 0.0819 |
| AGUCCUGUGCUACACAUCGUAUGUACCGAAUCGGGGAGGGGUUUUUGGGGAAAGGGGAAAGUAUUAUGUUACGCCGUUCGGAUCUGCACU | 1.04 |
| GUCCUGUGCUACACAUCGUAUGUACCGAAUCGGGGAAAAAGGGGUGGGGUUUUUGGGGAAAGUAUUAUGUUACGCCGUUCGGAUCUGCAC | 0.763 |
| AAGUCCUGUGCUACACAUCGUAUGUACCGAAUCGGAAAAAAAGGUUUUUGGAAAGGAAAGUAUUAUGUUACGCCGUUCGGAUCUGCACUU | -0.19 |
| UGGGAGGUGGAUUUUGUUUAUUUUUUUAGCUCAUUUCCAGGGGUGGGAAUUUAUUUUUAAUAUGUGUCAUGAAUAAAGUUGUUUUUGAAA | 2.28 |
| CUCAAGUCCUGUGCUACACAUCGUAUGUACCGAAUCGGUUUGGUUUUUGGUGGAAAGUAUUAUGUUACGCCGUUCGGAUCUGCACUUCCA | -0.225 |
| CUCAAGUCCUGUGCUACACAUCGUAUGUACCGAAUCGGGGAAGGAAGGGAAGGGAAAGUAUUAUGUUACGCCGUUCGGAUCUGCACUUCC | -0.23 |
| CAAGUCCUGUGCUACACAUCGUAUGUACCGAAUCGGGUUUGGGAAAGGGAAAGGGAAAGUAUUAUGUUACGCCGUUCGGAUCUGCACUUC | 0.664 |

Set 4 — target: CCNE1, cyclin fold, Cln2 fusion (human); technique: yeast growth competition, sequencing; medium: yeast; setting: weak parent motif; reference: not given; direction: higher = stronger binding
Starting sequence: CDC6 docking peptide (human); TLKGRRLVFDNQL
| Substitution | normalised enrichment score |
| --- | --- |
| T1L | 0.151 |
| L2E | 0.0606 |
| F9L | 0.252 |
| G4N | -0.289 |
| L7T | -0.239 |
| V8F | 0.401 |
| L13K | -0.239 |
| T1W | 1.07 |
| Q12F | 0.0946 |
| G4Q | 0.556 |
| K3D | 0.37 |
| L13R | 0.397 |
| T1H | 0.547 |
| L2V | 0.705 |
| F9H | -0.189 |

Excerpt of the above (set 2):
| Oligonucleotide | RBNS enrichment (R) |
| --- | --- |
| GAAGCACAGGCCCGUCACCCCAGGAGGAAAAGCCCAGGGUCUGGGGCAGCAGAGCCAUCGCAUCAUGUUUCCCAGGGCAACUUGAGGUCUGACUUUUGGCUCCCUCGCCC | 0.409 |
| AGGAGAUGUCAUGACAACACUACACGCACCCAAUAAAGCGAAUGGACCAUCCAUGUGUGUCCCUGUGGCACCGGGUCCUGCCCACCCUGGUUUUGAUCAUCCACAGCAUU | 1.4 |
| CAAACCAUUUUCAGAGACUUUGGGGAAUGCAGUGAUCAGAAGUGGCUAAUUUAUUUUAUUUCUGAUUAUUUUAUCCAGAGGGUACUUUUUUAAUGGAUAUUUGUAAAUCU | 0.841 |
| UGCUGCGUGCCCACCAGGAUUUCCUGUGAGGGCCCAGGAAUGAGCAAGGCAUGGUCUGCCACCAGCUGACGGAAAGCAGCCUUCUGUACAACAGAUGGGAGGGUGAAGGG | 0.407 |
